# Assay results collected from several papers.
# Parts stem from different laboratories: compare values within a part only.
# UniProt P08172, sequence (whole entry, looked up): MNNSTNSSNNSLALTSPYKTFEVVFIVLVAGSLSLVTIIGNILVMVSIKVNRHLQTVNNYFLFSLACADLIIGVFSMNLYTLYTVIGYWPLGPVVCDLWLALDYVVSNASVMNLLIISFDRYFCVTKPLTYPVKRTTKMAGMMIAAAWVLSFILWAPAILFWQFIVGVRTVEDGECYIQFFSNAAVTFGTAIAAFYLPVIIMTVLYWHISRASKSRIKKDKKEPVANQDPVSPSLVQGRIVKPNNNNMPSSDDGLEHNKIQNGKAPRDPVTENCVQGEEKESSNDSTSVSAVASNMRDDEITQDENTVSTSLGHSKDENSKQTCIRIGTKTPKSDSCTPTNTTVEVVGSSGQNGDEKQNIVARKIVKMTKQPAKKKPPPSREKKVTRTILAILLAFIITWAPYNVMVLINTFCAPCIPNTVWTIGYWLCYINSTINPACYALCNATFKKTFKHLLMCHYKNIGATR

# Set 1
# Target: RNA binding protein fox-1 homolog 2, RRM domain, GST-SBP tag (RBFOX2, Homo sapiens, UniProt O43251-10, residues 100-194)
# Technique: RNA Bind-n-Seq
# Molecule type: RNA
# Sample: in vitro
# Concentration: 365 nM
# Setting: natural RNA segment, single round, ends assumed
# Relative to: no-protein control
# Reading: higher = stronger binding
# Residues (chain): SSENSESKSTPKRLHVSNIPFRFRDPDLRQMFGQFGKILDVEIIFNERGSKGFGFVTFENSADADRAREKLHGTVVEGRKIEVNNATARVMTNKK
Oligonucleotide,RBNS enrichment (R)
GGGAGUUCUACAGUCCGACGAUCUUCUAAUCUAGAGCACGGAGAACUGGUCUGUCACUUUUAAAAUUAGAUGCCUUUGAUCAGAGUUUGACUCACAGACAGCAUUUGAGCUCUACAGCUAUUUGAGUCCCUAGUGGAAUUCUCGGGUGCCAA,0.412
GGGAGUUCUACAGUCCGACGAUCGGCAGAGAAGAAAAAGUCCAGCAGACUCAGGACUCCUGGGCUGCAGGCCCCCCUCUGCCCUGAUCCCAUGAAGUGACCUUGGGCACUCCCUUUCCCUCCCUGGGCCUCAGUGGAAUUCUCGGGUGCCAA,0.402
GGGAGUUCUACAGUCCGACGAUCCCGCUGGAGGAGGCUUUGGUGCAUGUUGCUGUGAAGUCCUUCCGUGUGGCCACCCAGCCAGCUGGAGCAGCACUGUGCCGUGUGUGUGUGUGUGUGUGUGUGUGUGUGUGUGGAAUUCUCGGGUGCCAA,7.97
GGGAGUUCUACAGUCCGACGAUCGAAUACAUUUCUGUACACCUUAUUGUUUGGCCAGAGGGCCACCAAGUGUACUUAUAUGUAAUCCUUAAAUUUUAAACUAGCUUGUGAUUUUUAAAUAUUUCUAAACUUUUUGGAAUUCUCGGGUGCCAA,5.7
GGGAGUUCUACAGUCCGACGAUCCAGGACAGCAACUUCAGGGAUCUGUAAAGAUCAUUUAAAUGGAGUGCUCAUCUCAUUGAGGAGCAGAUUAAUUUUGGGUAAUAAGUGUGAUCAUUGUUGAACUUCAGCUCUGGAAUUCUCGGGUGCCAA,0.349
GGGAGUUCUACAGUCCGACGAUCUAGUGAAGGCCCUGGAUAGGUGGUACCUACUGUCUGACACCCACGGGGAAACUGAGCCAGGUCCAGGCCGAUGAGAAGUUCCCAGUGGGCUGAAGUGGCCACCAGGGGUCUGGAAUUCUCGGGUGCCAA,0.326
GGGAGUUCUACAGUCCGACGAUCUUCUAUUUCUUGUCAUUACCAAGCCAAUUACUUUUGCCAAAUUUUUCUGUGAUCUGCCCUGAUUAAGAUGAAUUGUGAAAUUUACAUCAAGCAAUUAUCAAAGCGGGCUGUGGAAUUCUCGGGUGCCAA,0.469
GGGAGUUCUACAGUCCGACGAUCGGGGUUCUGCUGGCUCAUACCCUCAGAAGAGCACCUGGGAGUAACCUAGUCAUGGCAAAGAAGAUGUGACACGAGGGACCAGUCCCAGAGCAGCUACAGAAAGGGUGUGAUGGAAUUCUCGGGUGCCAA,0.296

# Set 2
# Target: Sal-like protein 4, full length isoform A (SALL4, Homo sapiens, UniProt Q9UJQ4, residues 1-1053)
# UniProt Q9UJQ4, sequence (whole entry, looked up): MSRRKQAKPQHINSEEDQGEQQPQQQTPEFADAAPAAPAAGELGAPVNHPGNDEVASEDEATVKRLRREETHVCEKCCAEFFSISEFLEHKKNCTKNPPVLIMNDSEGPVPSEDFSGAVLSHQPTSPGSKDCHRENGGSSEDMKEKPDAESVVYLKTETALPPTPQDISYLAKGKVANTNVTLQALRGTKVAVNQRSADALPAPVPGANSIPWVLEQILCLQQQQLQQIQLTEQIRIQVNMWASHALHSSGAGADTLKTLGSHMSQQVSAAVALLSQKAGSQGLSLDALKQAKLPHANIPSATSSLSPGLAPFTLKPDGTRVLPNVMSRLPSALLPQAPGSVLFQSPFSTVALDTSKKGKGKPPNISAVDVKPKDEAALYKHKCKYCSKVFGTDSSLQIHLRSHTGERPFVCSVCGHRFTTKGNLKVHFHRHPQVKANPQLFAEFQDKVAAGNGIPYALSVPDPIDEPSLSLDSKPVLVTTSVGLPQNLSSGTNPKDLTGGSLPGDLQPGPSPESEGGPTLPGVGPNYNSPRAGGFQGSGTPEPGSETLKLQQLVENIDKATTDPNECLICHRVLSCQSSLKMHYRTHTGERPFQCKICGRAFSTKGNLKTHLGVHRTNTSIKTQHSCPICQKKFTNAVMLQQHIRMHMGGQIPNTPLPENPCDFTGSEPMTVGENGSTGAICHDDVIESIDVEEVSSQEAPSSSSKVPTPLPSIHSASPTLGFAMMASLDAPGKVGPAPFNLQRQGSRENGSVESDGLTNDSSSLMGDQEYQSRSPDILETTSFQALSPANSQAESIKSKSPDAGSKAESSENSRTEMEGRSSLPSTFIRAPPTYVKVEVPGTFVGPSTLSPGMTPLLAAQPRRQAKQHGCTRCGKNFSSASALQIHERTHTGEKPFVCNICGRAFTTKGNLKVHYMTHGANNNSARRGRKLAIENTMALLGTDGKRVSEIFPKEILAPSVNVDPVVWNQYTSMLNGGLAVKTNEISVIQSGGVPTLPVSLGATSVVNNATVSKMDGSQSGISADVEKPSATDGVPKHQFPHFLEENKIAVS
# Technique: universal PBM
# Molecule type: double-stranded DNA, one strand shown
# Sample: in vitro
# Concentration: 600 nM
# Setting: 8-mer, flanks averaged, mean of replicates
# Reading: higher = stronger binding
Oligonucleotide,E-score
AAACACGC,-0.0158
AATTAGCC,-0.0282
GAAAATCC,0.104
ACGAGAGC,-0.106
CAGAGCAC,-0.163
AGAAGGCC,-0.145
AAATGACG,0.133
CGGGACTC,-0.303

# Set 3
# Target: Runt-related transcription factor 1 (RUNX1, Homo sapiens, UniProt Q01196, residues 1-453, full length assumed)
# UniProt Q01196, sequence (whole entry, looked up): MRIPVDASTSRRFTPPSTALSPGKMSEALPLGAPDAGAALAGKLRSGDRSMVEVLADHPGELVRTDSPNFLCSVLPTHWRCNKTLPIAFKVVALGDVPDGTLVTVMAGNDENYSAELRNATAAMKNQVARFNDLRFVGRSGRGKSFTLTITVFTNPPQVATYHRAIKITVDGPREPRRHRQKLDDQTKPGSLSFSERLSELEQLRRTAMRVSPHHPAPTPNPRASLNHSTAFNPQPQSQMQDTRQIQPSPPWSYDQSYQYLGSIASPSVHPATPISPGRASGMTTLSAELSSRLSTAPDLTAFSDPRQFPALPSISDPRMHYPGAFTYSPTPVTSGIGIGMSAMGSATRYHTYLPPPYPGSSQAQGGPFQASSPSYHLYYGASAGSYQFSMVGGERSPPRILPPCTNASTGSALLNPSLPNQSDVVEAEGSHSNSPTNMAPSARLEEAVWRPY
# Technique: protein-binding microarray
# Molecule type: double-stranded DNA, one strand shown
# Sample: in vitro
# Concentration: not given
# Setting: k-mer, scored over probes, only values ≥0.25
# Reading: higher = stronger binding
Oligonucleotide,E-score
CCACACC,0.263
CAACCGC,0.408
CCCACAA,0.335
CACAAAA,0.327
GCGGTAA,0.386
ACCGCTA,0.26
CTAACCA,0.3
CATTACC,0.294

# Other studies, line by line
SMILES,target,test,conditions,endpoint,result
O=C(O)c1cc(-c2ccc(C3CCNCC3)cc2)c2ccc(-c3ccc(C(F)(F)F)cc3)cc2c1,"Muscarinic acetylcholine receptor M2 (CHRM2, Homo sapiens, UniProt P08172)","binding, radioligand binding",10 µM,inhibition,10.9%

# A few entries again (set 2):
Oligonucleotide,E-score
AAATGACG,0.133
AAACACGC,-0.0158
